Measured values collected from several papers.
Each line is one published result; not all experiments were run side by side. ± marks the error that the study gave.
POLB: DNA polymerase beta (POLB, Homo sapiens, UniProt P06746)
SCTR: Secretin receptor (SCTR, Homo sapiens, UniProt P47872)

For `CCCCCCCC/C=C\CCCCCCCC(=O)OC[C@@H]1OCC=C[C@@H]1OP(=O)(O)S` (some centres unmarked), the Emax was 30% (Lysophosphatidic acid receptor 2 (LPAR2, Homo sapiens, UniProt Q9HBW0); agonist, TGFα shedding).
The kpol/Kd of `Nc1nc2c(ncn2[C@H]2C[C@H](O)[C@@H](COP(=O)(O)OP(=O)(O)C(F)(F)P(=O)(O)O)O2)c(=O)[nH]1` is reported as 5.9 ± 1.3 M⁻¹ s⁻¹ (POLB; nucleotide incorporation, substrate, single turnover kinetics; dG misincorporation opposite A).
With `CN1CCC=C(c2cc(F)cc3[nH]ccc23)C1` the Emax was 44.6% (5-hydroxytryptamine receptor 2A (HTR2A, Homo sapiens, UniProt P28223); β-arrestin recruitment, agonist).
For `COc1cccc(-c2cc(C(F)(F)F)nc(NCc3ccccc3)n2)c1`, the Emax was 152 ± 20% (SCTR; increase of tracer binding, TR-FRET; HEK293 membranes; together with: Fluo-Sec 6 nM).
The enrichment factor of `NC(=O)C1CCNC(=O)C(CCCNC(=O)c2cnccn2)NC(=O)C(CC2CCCCC2)NC(=O)C(CC=Cc2ccccc2)NC(=O)C=CC(=O)N1` (centres unmarked) is reported as 1.6 (Vascular endothelial growth factor receptor 2 (KDR, Homo sapiens, UniProt P35968); DNA-templated library selection; one selection round).
Under enzyme activity, `COc1c(OCCCCN2CCCC2)cc(O)c2c(=O)cc(-c3ccccc3)oc12` is recorded as “decreased” (Phosphoglycerate kinase 1 (PGK1, Homo sapiens, UniProt P00558); inhibitor, ATP production; HEK-293T; 0, 2, 4, 6 µM, 12 h).
`NS(=O)(=O)c1ccc(NC(=O)c2ccccc2SSc2ccccc2C(=O)Nc2ccc(S(N)(=O)=O)cc2)cc1` has a Hill coefficient of 1.2 ± 0.05 (Gag-Pol polyprotein, integrase core 50-213 (gag-pol, Human immunodeficiency virus type 1 group M subtype B, UniProt P04585); DNA binding, fluorescence anisotropy; integrase CC; compound:IN ratio 3:1, together with: 10 mM Mn2+, U5 DNA).
`N#Cc1cccc(-c2ccc(=O)n(Cc3cccc(-c4ncc(OCC5CCN(CC(=O)N6CCN(CCNc7ccc8c(c7)C(=O)N(C7CCC(=O)NC7=O)C8=O)CC6)CC5)cn4)c3)n2)c1` (centres unmarked) has a Dmax of over 99% (Hepatocyte growth factor receptor (MET, Homo sapiens, UniProt P08581); degrader; EBC-1; concentration not given).
`COc1ccc(-c2cc(C(F)(F)F)nc(S(=O)(=O)CCCC(=O)Nc3ccc(F)cc3F)n2)cc1OC` gave an Emax of 137 ± 11% (SCTR; increase of tracer binding, TR-FRET; HEK293 membranes; together with: Fluo-Sec 6 nM).
The 1-NBDG uptake of `C[C@@H]1O[C@@H](OC[C@H]2O[C@@H](Oc3c(-c4ccc(O)cc4)oc4cc(O)cc(O)c4c3=O)[C@H](O[C@@H]3O[C@@H](C)[C@H](O)[C@@H](O)[C@H]3O)[C@@H](O)[C@H]2O)[C@H](O)[C@H](O)[C@H]1O` is reported as 17.5 ± 4.09% (Sodium/glucose cotransporter 1 (SLC5A1, Homo sapiens, UniProt P13866); inhibitor; COS-7 expressing SLC5A1; 50 µM; reference: control).
With `Cc1cn(C2CC(O)C(COP(=O)(O)OP(=O)(O)C(F)P(=O)(O)O)O2)c(=O)[nH]c1=O` (mixture of isomers) the kpol/Kd was 220000 ± 30000 M⁻¹ s⁻¹ (POLB; substrate, single turnover kinetics).
`Cc1ccc(Nc2ncc3c(n2)N(C)C(=O)N(c2cc(NC(=O)c4ccc(CN5CCC(N(C)C)C5)c(C(F)(F)F)c4)ccc2C)C3)cn1` (centres unmarked) gave a GI50 of 0.028 µM (FGFR4/Transcription factor ETV6 (Homo sapiens, UniProt P22455+P41212); cell growth; Ba/F3 expressing TEL-FGFR4; 72 h).
Under “potency fold shift”, `COC(=O)C1=CNC=C(C(=O)OC)C1c1ccc(F)c(C(F)(F)F)c1` is recorded as about 333 fold (Intermediate conductance calcium-activated potassium channel protein 4 (KCNN4, Homo sapiens, UniProt O15554, T250S/V275A); ion current, whole-cell patch clamp; pore mutant; reference: mutant over wild type).
With `Cc1cc(=O)oc2c(F)c(OP(=O)(O)O)c(F)cc12` the kcat was 81.8 ± 5.84 s⁻¹ (Tyrosine-protein phosphatase non-receptor type 11 (PTPN11, Homo sapiens, UniProt Q06124); dephosphorylation, substrate).

Repeated from above:
The enrichment factor of `NC(=O)C1CCNC(=O)C(CCCNC(=O)c2cnccn2)NC(=O)C(CC2CCCCC2)NC(=O)C(CC=Cc2ccccc2)NC(=O)C=CC(=O)N1` (centres unmarked) is reported as 1.6 (Vascular endothelial growth factor receptor 2 (KDR, Homo sapiens, UniProt P35968); DNA-templated library selection; one selection round).
